# Assay results collected from several papers.
# A part holds a random share of what one study measured. Several values in a cell are separate wells, animals, samples, runs or records.
# UniProt P00519, sequence (whole entry, unmodified, looked up): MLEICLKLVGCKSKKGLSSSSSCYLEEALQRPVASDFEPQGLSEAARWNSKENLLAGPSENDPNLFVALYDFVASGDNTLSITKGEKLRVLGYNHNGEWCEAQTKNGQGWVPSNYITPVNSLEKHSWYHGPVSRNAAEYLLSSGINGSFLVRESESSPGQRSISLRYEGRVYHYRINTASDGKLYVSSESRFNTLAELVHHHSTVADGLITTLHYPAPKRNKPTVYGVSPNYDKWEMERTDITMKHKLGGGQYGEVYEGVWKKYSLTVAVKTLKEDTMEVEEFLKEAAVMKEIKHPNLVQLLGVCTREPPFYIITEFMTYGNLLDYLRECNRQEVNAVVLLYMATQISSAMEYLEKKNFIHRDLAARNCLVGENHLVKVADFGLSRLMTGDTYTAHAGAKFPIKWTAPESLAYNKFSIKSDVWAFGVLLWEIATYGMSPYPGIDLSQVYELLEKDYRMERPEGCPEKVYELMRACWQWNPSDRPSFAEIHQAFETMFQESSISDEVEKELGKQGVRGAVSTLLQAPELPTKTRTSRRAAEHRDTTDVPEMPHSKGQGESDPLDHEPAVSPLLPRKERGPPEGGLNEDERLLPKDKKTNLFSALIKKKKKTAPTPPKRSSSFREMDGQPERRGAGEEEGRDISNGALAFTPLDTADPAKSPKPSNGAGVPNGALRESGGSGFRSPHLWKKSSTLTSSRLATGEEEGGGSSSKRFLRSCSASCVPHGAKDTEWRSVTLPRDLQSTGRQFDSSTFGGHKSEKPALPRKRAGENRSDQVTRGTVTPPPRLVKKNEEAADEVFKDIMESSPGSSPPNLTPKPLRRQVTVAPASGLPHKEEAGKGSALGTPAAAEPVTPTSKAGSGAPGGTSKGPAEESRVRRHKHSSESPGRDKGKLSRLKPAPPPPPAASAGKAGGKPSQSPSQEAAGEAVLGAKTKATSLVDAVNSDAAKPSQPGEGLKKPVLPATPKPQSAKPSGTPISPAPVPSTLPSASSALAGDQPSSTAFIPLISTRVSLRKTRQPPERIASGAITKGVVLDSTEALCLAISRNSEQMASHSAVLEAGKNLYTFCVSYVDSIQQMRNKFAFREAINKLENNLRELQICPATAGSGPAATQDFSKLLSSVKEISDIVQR
# UniProt P46098, sequence (whole entry, looked up): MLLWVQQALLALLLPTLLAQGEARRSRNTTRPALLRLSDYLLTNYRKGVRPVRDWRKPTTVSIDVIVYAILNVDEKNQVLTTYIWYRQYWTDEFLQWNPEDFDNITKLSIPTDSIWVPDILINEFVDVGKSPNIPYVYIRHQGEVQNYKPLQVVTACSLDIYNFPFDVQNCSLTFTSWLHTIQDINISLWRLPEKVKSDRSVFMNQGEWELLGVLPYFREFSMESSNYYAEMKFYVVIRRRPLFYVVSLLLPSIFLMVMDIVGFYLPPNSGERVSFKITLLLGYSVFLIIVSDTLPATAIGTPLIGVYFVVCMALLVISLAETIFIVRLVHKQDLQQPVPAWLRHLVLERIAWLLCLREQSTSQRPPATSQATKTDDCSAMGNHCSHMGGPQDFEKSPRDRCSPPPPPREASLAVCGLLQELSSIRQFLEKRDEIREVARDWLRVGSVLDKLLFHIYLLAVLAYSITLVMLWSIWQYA
# UniProt P47898, sequence (whole entry, looked up): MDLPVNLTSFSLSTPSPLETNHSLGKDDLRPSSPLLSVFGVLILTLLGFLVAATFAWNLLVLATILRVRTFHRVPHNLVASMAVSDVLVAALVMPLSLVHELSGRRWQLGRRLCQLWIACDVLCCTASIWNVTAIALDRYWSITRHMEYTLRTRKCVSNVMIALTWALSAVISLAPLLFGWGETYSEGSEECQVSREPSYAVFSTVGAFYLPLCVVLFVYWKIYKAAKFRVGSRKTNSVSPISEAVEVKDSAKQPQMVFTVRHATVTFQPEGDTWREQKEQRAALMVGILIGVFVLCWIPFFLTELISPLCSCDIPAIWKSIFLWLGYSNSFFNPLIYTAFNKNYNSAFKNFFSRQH

# Series 1 — read-out: enzyme activity; mode: inhibitor; concentration: 0.5 µM; baseline: control
# Target: Tyrosine-protein kinase JAK2 (JAK2, Homo sapiens, UniProt O60674)
# UniProt O60674, sequence (whole entry, looked up): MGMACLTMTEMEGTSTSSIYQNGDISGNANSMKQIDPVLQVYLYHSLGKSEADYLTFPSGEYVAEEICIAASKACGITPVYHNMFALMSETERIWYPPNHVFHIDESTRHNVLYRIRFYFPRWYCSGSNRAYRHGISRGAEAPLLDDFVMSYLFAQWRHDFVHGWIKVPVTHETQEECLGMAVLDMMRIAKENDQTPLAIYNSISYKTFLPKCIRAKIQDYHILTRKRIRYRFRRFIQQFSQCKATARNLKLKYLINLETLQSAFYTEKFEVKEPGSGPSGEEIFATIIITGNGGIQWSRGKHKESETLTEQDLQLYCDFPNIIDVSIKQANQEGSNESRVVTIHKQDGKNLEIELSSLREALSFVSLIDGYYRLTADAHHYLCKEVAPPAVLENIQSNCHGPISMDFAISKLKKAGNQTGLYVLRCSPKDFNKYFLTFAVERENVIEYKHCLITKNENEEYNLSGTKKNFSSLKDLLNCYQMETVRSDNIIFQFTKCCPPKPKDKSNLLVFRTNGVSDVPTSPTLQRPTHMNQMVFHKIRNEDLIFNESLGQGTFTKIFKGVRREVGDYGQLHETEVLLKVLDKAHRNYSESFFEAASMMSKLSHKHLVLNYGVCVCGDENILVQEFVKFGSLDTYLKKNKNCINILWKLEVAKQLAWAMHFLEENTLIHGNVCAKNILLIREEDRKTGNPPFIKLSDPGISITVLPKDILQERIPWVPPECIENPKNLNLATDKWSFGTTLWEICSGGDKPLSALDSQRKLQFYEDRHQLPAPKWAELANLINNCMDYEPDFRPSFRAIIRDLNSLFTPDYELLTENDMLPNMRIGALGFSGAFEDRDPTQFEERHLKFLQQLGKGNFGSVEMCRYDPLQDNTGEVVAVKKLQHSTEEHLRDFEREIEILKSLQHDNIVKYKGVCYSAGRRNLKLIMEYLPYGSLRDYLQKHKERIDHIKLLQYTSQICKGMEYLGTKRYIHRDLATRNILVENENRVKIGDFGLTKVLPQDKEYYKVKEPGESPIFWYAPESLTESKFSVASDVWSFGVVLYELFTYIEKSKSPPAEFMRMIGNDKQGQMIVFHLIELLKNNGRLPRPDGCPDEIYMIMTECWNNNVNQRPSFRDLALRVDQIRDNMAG
SMILES,remaining activity [%]
O=c1cc(-c2cccc3c2Sc2ccccc2S3)oc(N2CCOCC2)c1,105
O=C(NC(NC(=S)Nc1ccc(F)c([N+](=O)[O-])c1)C(Cl)(Cl)Cl)C(c1ccccc1)c1ccccc1 (stereo not shown),99.9
N#Cc1c(NC(=O)c2cccc3ccccc23)sc2c1CCCC2,103
c1ccc(-c2cnc(Nc3ccc(OCCN4CCCC4)cc3)s2)cc1,92.7
CCN(CC)CCNC(=O)c1c(C)[nH]c(/C=C2\C(=O)Nc3ccc(Cl)cc32)c1C,54
CCOc1nc(NC(=O)Cc2cc(OC)ccc2OC)cc(N)c1C#N,101
c1ccc(-c2[nH]ncc2-c2ccnc3ccccc23)nc1,107
Nc1cccc(-c2cc3c(Oc4cccc(O)c4)ncnc3[nH]2)c1,85.4
Cn1nc2c3c(cccc31)C(=O)c1ccccc1-2,95.9
Cc1cn(-c2cc(NC(=O)c3ccc(C)c(Nc4nccc(-c5cccnc5)n4)c3)cc(C(F)(F)F)c2)cn1,100
Ic1cccc(CSc2nnc(-c3ccncc3)o2)c1,107
CCN(CC)C(=O)c1ccc(Nc2nc(OCC3CCCCC3)c3[nH]cnc3n2)cc1,4.21
COc1cc2ncnc(Nc3ccc(O)c(Br)c3)c2cc1OC,95
O=C(Nc1cccc(Nc2nccc(Nc3cccc(C(F)(F)F)c3)n2)c1)C1CC1,47.7
COc1cc2ncnc(Nc3cccc(Cl)c3)c2cc1OC,97.4
Cc1cc2ncc(-c3ccccc3)nc2cc1C,97.3
N#C/C(=C\c1ccc(O)c(O)c1)C(=O)NCc1ccccc1,98.1
O=C1c2ccccc2-c2n[nH]c3cccc1c23,77.7
CN(C)C[C@H]1CCn2c(c(C3=C(c4cn(C)c5ccccc45)C(=O)NC3=O)c3ccccc32)C1,98.6
CN([C@@H](Cc1ccc(OS(=O)(=O)c2cccc3cnccc23)cc1)C(=O)N1CCN(c2ccccc2)CC1)S(=O)(=O)c1cccc2cnccc12,96.6
Cc1nc2cc3nc(-c4cccs4)cnc3cc2n1C,106
COc1cc2c(cc1OC)-c1[nH]nc(Nc3cccc(F)c3)c1C2,107
O=C1C(Cl)=C(N2C(=O)CCC2=O)C(=O)c2ccccc21,104

# Series 2 — read-out: binding; mode: competitor; method: NanoBRET; cell line: HEK293
# SMILES: CN1CCC[C@H]1COc1nc2c(c(N3CCN(S(C)(=O)=O)[C@@H](CC#N)C3)n1)CCN(c1cccc3cccc(Cl)c13)C2
# KRAS G13D: GTPase KRas (KRAS, Homo sapiens, UniProt P01116, G13D)
# KRAS Q61R: GTPase KRas (KRAS, Homo sapiens, UniProt P01116, Q61R)
target,setting,normalized BRET
KRAS G13D,5.08 nM,102% and 104% and 92.5%
KRAS G13D,412 nM,65.5% and 71.5% and 62.1%
KRAS Q61R,137 nM,98.6% and 83.1% and 82%
"GTPase KRas (KRAS, Homo sapiens, UniProt P01116, G12D)",137 nM,99.2% and 95.1% and 94.2%
KRAS G13D,45.7 nM,93.2% and 91.8% and 80.6%
KRAS Q61R,15.2 nM,81.4% and 82.1% and 97.4%
KRAS G13D,137 nM,86.8% and 94.1% and 83%
KRAS G13D,1.69 nM,98.4% and 98% and 95.6%

# Series 3 — cell line: HuT78; time: 10 h
# SMILES: CC(C)(C)c1cnc(CSc2cnc(NC(=O)C3CCN(CCCCCSc4cccc5c4CN(C4CCC(=O)NC4=O)C5=O)CC3)s2)o1 (stereo not shown)
# Target: Cyclin-dependent kinase 9 (CDK9, Homo sapiens, UniProt P50750)
# UniProt P50750, sequence (whole entry, looked up): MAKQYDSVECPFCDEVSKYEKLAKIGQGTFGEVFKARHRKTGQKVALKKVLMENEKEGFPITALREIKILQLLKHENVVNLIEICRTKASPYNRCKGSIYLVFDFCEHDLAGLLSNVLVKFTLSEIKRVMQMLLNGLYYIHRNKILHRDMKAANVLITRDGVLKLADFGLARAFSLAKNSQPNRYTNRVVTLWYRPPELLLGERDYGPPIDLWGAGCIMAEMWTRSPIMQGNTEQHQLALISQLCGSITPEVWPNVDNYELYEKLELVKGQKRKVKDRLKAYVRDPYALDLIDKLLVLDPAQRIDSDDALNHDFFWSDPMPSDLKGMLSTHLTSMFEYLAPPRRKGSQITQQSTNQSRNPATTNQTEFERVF
setting,remaining activity [%]
0.0001 µM,84.7
0.005 µM,53.9
0.25 µM,36.8
0.0005 µM,90.6
0.5 µM,37.3

# Series 4 — cell line: HaCaT; concentration: 100 µM; time: 60 h
SMILES,viability [%]
C[C@H]1COc2c(C3(N)CC3)c(F)cc3c(=O)c(C(=O)O)cn1c23,140
CCOC(=O)c1c(CSc2ccccc2)n(C)c2cc(Br)c(O)c(CN(C)C)c12,13.9
CN1CCc2c(c3ccccc3n2Cc2ccccc2)C1,113
CO/N=C(\C(=O)N[C@@H]1C(=O)N2C(C(=O)O)=C(C[N+]3(C)CCCC3)CS[C@H]12)c1csc(N)n1,144
O=c1ccc2ccc(O)c(O)c2o1,120
COc1cc2c(cc1OC)[C@@H]1Cc3ccc(OC)c(OC)c3CN1CC2,129
C[C@H](CCC(=O)O)[C@H]1CC[C@H]2[C@@H]3CC[C@@H]4C[C@H](O)CC[C@]4(C)[C@H]3C[C@H](O)[C@]12C,119
O=C(O)c1ccccc1C(=O)Nc1ccc(S(=O)(=O)Nc2nccs2)cc1,113
CC(=O)[C@@]1(O)CC[C@H]2[C@@H]3CCC4=CC(=O)CC[C@]4(C)[C@H]3CC[C@@]21C,107

# Further values, each from its own experiment
Structure (SMILES),target or system,assay,setting,quantity,result
Cc1cc(Nc2nccc(C)n2)cc(-c2cnc([C@@]3(O)CC[C@H](C(=O)O)C(C)(C)C3)s2)c1,"Tyrosine-protein kinase ABL1, non-phosphorylated (ABL1, Homo sapiens, UniProt P00519, F317I)","binding, competition with immobilised ligand",0.1 µM,remaining binding,100%
CC(=O)Nc1nc(CN2CCC[C@H](Cc3cc(C)nc(C)c3)C2)cs1,"5-hydroxytryptamine receptor 5A (HTR5A, Homo sapiens, UniProt P47898)",ligand displacement,10 µM,inhibition,17.8%
Cc1cc(-n2nc(Cc3cc(F)cc(C(F)(F)F)c3)nc2C)ccc1C(N)=O,"5-hydroxytryptamine receptor 3A (HTR3A, Homo sapiens, UniProt P46098)","binding, radioligand binding",10 µM,inhibition,5.45%
Cn1cncc1[C@@](O)(COc1ccc(C#N)cc1-c1ccc(OC(F)(F)F)cc1)c1ccc(C#N)cc1,HEK293T,high-content imaging,"10 µM, 0 h",cells with high Hoechst intensity,6.6% and 14.9%
